Assay results of several laboratories.
Lines come from different studies, so protocols differ. ± marks the error that the study gave.

With CCOC(=O)N1C[C@@H](c2ccc(C#N)cc2)N[C@@H](c2ccc(N3CCCC3)cc2)C1 the solubility was under 4 µM (shake-flask, LC-HRMS; aqueous buffer; 16 h, pH 6.8).
For CCn1nccc1Nc1ccnc2ccc(-c3ccc(S(=O)(=O)N4CCOCC4)cc3)cc12, the solubility was 5 µM (thermodynamic; aqueous medium).
Cc1c(-c2cccc(C(F)(F)F)c2)sc2[nH]c(=O)n([C@H](C)c3cccc4ccccc34)c(=O)c12 gave a solubility of 37 ± 3.6 µM (shake-flask; PBS; 36 h, pH 7.4, room temperature).
With CCOC(=O)N1C[C@@H](c2cc(Cl)cc(Cl)c2)N[C@@H](c2ccc(F)c(C#N)c2)C1 the solubility was under 4 µM (shake-flask, LC-HRMS; aqueous buffer; 16 h, pH 6.8).
CCCCCCCCCCCCCCCC(=O)NCCO gave a solubility of under 16 µg/mL (acetate buffer; 12 h, pH 4.5, 37 °C).
COc1ccc2c(C)nc(Nc3nc(C)cc(O)n3)nc2c1 has a solubility of under 1.27 µg/mL (aqueous buffer; pH 7.4).
The solubility of CCOC(=O)N1C[C@@H](c2ccccc2O)N[C@@H](c2cccnc2)C1 is reported as over 750 µM (shake-flask, LC-HRMS; aqueous buffer; 16 h, pH 6.8).
The solubility of CS(=O)(=O)N(CC(=O)Nc1ccccc1C(=O)N1CCOCC1)c1ccc(Cl)cc1 is reported as under 3.23 µg/mL (aqueous buffer; pH 7.4).
For COc1cc(C(=O)[O-])cc(COC(=O)N(C)C(=O)c2ccc(N3C(=S)N(c4ccc(C#N)c(C(F)(F)F)c4)C(=O)C3(C)C)cc2F)c1OP(=O)([O-])[O-].[Na+].[Na+].[Na+], the solubility was 240 µg/mL (HPLC, saturated solution; simulated gastric fluid; 30 s, pH 1.2).
O=C(Nc1ccc(OC(F)(F)F)cc1)N[C@H]1CC[C@H](Oc2ccc(C(=O)O)cc2)CC1 has a solubility of 0.364 ± 0.0427 µg/mL (deionised water; 5 min, pH 6.6, 37 °C, non-sink dissolution).
For CCC[C@H](C)[C@H]1CN(C(=O)OCC)C[C@@H](c2ccc(C(F)(F)F)cc2)N1, the solubility was under 4 µM (shake-flask, LC-HRMS; aqueous buffer; 16 h, pH 6.8).
CC(=O)Nc1ccc(S(=O)(=O)Nc2c(C)nn(-c3ccccc3)c2C)cc1 has a solubility of under 2.75 µg/mL (aqueous buffer; pH 7.4).
The solubility of O=C(Nc1ccccc1)C1(C(F)(F)F)CC1 is reported as 369 µM (PBS; 2 h, pH 7.4, 25 °C).
For Nc1nc2c(ncn2COCCO)c(=O)[nH]1, the solubility was 1770 µg/mL (methanol + water; 24 h, 298.2 K, methanol mass fraction 0.7).
Clc1nc(OCc2ccccc2)c2[nH]cnc2n1 has a solubility of 80 µM (UV absorbance; culture medium; stock diluted to 0.20 mM).
With COc1cccc(-c2cccc(Nc3nccc(NC4CCCCC4)n3)c2)c1 the solubility was 0.3 ± 1.1 µM (citrate phosphate-buffered saline; 18 h, pH 7.4, 1% DMSO).
COc1ccc(-c2cc(=O)c3c(OC)cc(OC)cc3o2)cc1 has a solubility of 12970 ± 61 ppm (HPLC; ethanol:butylene glycol 100:0).
O=C(CSc1nnc(-c2ccccc2O)n1-c1ccccc1)Nc1cccc(C(=O)O)c1 has a solubility of 40.3 µg/mL (aqueous buffer; pH 7.4).
The solubility of Clc1cc(Cl)cc([C@@H]2COC[C@H](C3CCCCC3)N2)c1 is reported as under 4 µM (shake-flask, LC-HRMS; aqueous buffer; 16 h, pH 6.8).
With COc1cc(OC)c(NC(=O)CSc2nnc(-c3ccncc3)n2C)cc1Cl the solubility was under 2.25 µg/mL (aqueous buffer; pH 7.4).
Brc1cccc([C@H]2COC[C@H](C3CCCCC3)N2)c1 gave a solubility of under 4 µM (shake-flask, LC-HRMS; aqueous buffer; 16 h, pH 6.8).
The solubility of COc1cc(OC)c(NC(=O)CSc2nnc(-c3ccncc3)n2-c2ccccc2)cc1Cl is reported as under 2.58 µg/mL (aqueous buffer; pH 7.4).
For COC(=O)[C@H](C)Nc1ccnc(Nc2cccc(-c3cccnc3)c2)n1, the solubility was 52.6 ± 1.5 µM (citrate phosphate-buffered saline; 18 h, pH 7.4, 1% DMSO).
With CN1C(=O)[C@@H](NC(=O)c2nnc(Cc3ccccc3)[nH]2)COc2cccnc21 the solubility was under 100 µg/mL (Biopharmaceutics Classification System).
For CC(C)(C)c1ccc([C@H]2COC[C@H](C3CCCC3)N2)cc1, the solubility was under 4 µM (shake-flask, LC-HRMS; aqueous buffer; 16 h, pH 6.8).

For quick reference, copied from above:
Clc1nc(OCc2ccccc2)c2[nH]cnc2n1 has a solubility of 80 µM (UV absorbance; culture medium; stock diluted to 0.20 mM).
For Nc1nc2c(ncn2COCCO)c(=O)[nH]1, the solubility was 1770 µg/mL (methanol + water; 24 h, 298.2 K, methanol mass fraction 0.7).
For COC(=O)[C@H](C)Nc1ccnc(Nc2cccc(-c3cccnc3)c2)n1, the solubility was 52.6 ± 1.5 µM (citrate phosphate-buffered saline; 18 h, pH 7.4, 1% DMSO).
The solubility of O=C(Nc1ccccc1)C1(C(F)(F)F)CC1 is reported as 369 µM (PBS; 2 h, pH 7.4, 25 °C).
